Measurements of several laboratories.
Protocols differ between the studies behind these lines. Values joined by “and” are separate records of one study, mostly repeats; a detail may differ. ± marks the error that the study gave.

| Compound | test | test system | conditions | how to read | endpoint | value |
| --- | --- | --- | --- | --- | --- | --- |
| CN[C@@](C)(C[18F])C(=O)O | – | SCID mouse A549 xenograft, liver | 120 min, post injection | – | tissue uptake | 4.9 ± 0.7 %ID/g |
| CC(=O)N[C@H](CCCCNC(=O)C(C)F)C(=O)N[C@@H](CS)C(=O)N[C@@H](CS)C(=O)N[C@@H](CCC(=O)O)C(=O)N[C@@H](Cc1c[nH]cn1)C(=O)N[C@H](Cc1ccccc1)C(=O)N[C@@H](CCCNC(=N)N)C(=O)N[C@@H](Cc1c[nH]c2ccccc12)C(=O)N[C@@H](CS)C(=O)N[C@@H](CCCNC(=N)N)C(=O)N1CCC[C@H]1C(=O)N[C@H](C(N)=O)C(C)C (stereo partly drawn) [fluorine-18 labelled] | – | nude mice, A375M xenograft, brain | intravenous, 2 h | – | tissue uptake | 0.05 ± 0.01 %ID/g |
| CC(C)[C@H](NC(=O)CNC(=O)[C@H](CCCCN)NC(=O)[C@@H]1CCCN1C(=O)[C@H](CC(=O)O)NC(=O)CNC(=O)[C@H](CCCCN)NC(=O)[C@@H]1CCCN1C(=O)[C@H](CC(=O)O)NC(=O)c1ccc2c(c1)C(=O)OC21c2ccc(O)cc2Oc2cc(O)ccc21)C(=O)N[C@H](C(=O)N[C@H](C(=O)N[C@H](C(=O)N[C@H](C(=O)N[C@H](C(=O)N[C@H](C(=O)N[C@H](C(=O)N[C@H](C(=O)N[C@H](C(=O)NCC(=O)N[C@@H](CCCCN)C(=O)NCC(=O)N[C@@H](CC(=O)O)C(=O)N1CCC[C@H]1C(=O)N[C@@H](CCCCN)C(=O)N1CCC[C@H]1C(=O)N[C@@H](CC(=O)O)C(=O)O)[C@@H](C)O)C(C)C)[C@@H](C)O)C(C)C)[C@@H](C)O)C(C)C)[C@@H](C)O)C(C)C)[C@@H](C)O | no effect | Sprague-Dawley rat, excised skin | 50 µmol/L, 37 °C, FAM-labelled CPP conjugate | baseline: free FAM | apparent skin permeability | no effect |
| O[C@H]1CCCN[C@@H]1CCCn1cnc2c(Cl)c(Cl)ccc21 | – | healthy human volunteers, plasma | oral, 100 mg, day 1, median | – | Tmax | 2.5 h |
| Oc1ccc2ccc3cccc4ccc1c2c34 | HPLC-fluorescence | Wistar rat, male, kidney | oral, 4 mg/kg PY, 24 h | – | tissue concentration | 154 ± 23 ng/g |
| CSCC[C@@H]1NC(=O)[C@H](CC(=O)O)NC(=O)CNC(=O)[C@H](CCCNC(=N)N)NC(=O)[C@H](C)NC(=O)[C@H](CCC(=O)O)NC(=O)[C@H](CCCNC(=N)N)NC(=O)[C@@H]2CSSC[C@@H]3NC(=O)[C@H](CO)NC(=O)[C@H]([C@@H](C)O)NC(=O)[C@@H]4CCCN4C(=O)[C@H](C)NC(=O)[C@H](Cc4c[nH]c5ccccc45)NC(=O)[C@H](CC(=O)O)NC(=O)CNC(=O)[C@H](CCCNC(=N)N)NC(=O)CNC(=O)[C@H](CCC(N)=O)NC(=O)[C@@H]4CCCN4C(=O)[C@@H](NC(=O)CNC(=O)C(C)F)CSSC[C@H](NC(=O)CNC(=O)[C@H](C)NC(=O)[C@H](CC(C)C)NC(=O)[C@H](CSSC[C@@H](C(=O)NCC(N)=O)NC(=O)[C@H]([C@@H](C)O)NC(=O)[C@H](CCCNC(=N)N)NC(=O)[C@@H]4CCCN4C1=O)NC(=O)[C@H](CC(=O)O)NC(=O)[C@H](CO)NC(=O)[C@H](CC(=O)O)NC(=O)[C@H](CCC(N)=O)NC(=O)[C@H](CO)NC3=O)C(=O)N[C@@H](C(C)C)C(=O)N2 (stereo partly drawn) [fluorine-18 labelled] | – | nude mice U-87 MG xenograft, kidneys | intravenous, 0.5 h | – | tissue uptake | 6.98 ± 1.61 %ID/g |
| Nc1nc(N)nc(N)n1 | LC-MS/MS | pregnant female rat, serum | oral, 1000 mg/kg/day, 10 days | – | serum concentration | 89.6 µg/mL and 294 µg/mL and 552 µg/mL and 409 µg/mL and 411 µg/mL |
| CCCCCCCCCCCCCN(C)C | liver S9 substrate depletion | rainbow trout liver S9 | six-surfactant mixture | – | in vivo intrinsic clearance | 163 mL/h/g liver |
| O=C(c1ccc(F)c(F)c1Nc1ccc(I)cc1F)N1CC(O)([C@@H]2CCCCN2)C1 | refers to: retinal detachment | human patients | oral, 1 mg/kg, dose expansion, grade G4 | – | treatment-related adverse events | 0% |
| CC1(C)S[C@@H]2[C@H](NC(=O)[C@@H](C(=O)O)c3ccsc3)C(=O)N2[C@H]1C(=O)O | – | rat plasma | 8000 ng/mL, 24 h, room temperature, short-term stability | baseline: nominal concentration | relative error | -0.9% |
| CCCCCCCC[N+](C)(C)CCCCCCCC | ultrafiltration | human serum | – | – | unbound fraction in blood | 0.098 |
| CC[C@H](C)[C@H](NC(=O)[C@H](CC(C)C)NC(=O)[C@H](Cc1c[nH]c2ccccc12)NC(=O)[C@H](CCC(N)=O)NC(=O)[C@@H](NC(=O)[C@H](Cc1ccccc1)NC(=O)[C@H](C)NC(=O)[C@H](CCCCNC(=O)COCCOCCNC(=O)COCCOCCNC(=O)CC[C@H](NC(=O)CCCCCCCCCCCCCCCCCCC(=O)O)C(=O)O)NC(=O)[C@H](CCC(N)=O)NC(=O)[C@H](C)NC(=O)[C@@H](NC(=O)[C@H](CCCCN)NC(=O)[C@H](CC(=O)O)NC(=O)[C@H](CC(C)C)NC(=O)C(C)(C)NC(=O)[C@@H](NC(=O)[C@H](CO)NC(=O)[C@H](Cc1ccc(O)cc1)NC(=O)[C@H](CC(=O)O)NC(=O)[C@H](CO)NC(=O)[C@@H](NC(=O)[C@H](Cc1ccccc1)NC(=O)[C@@H](NC(=O)CNC(=O)[C@H](CCC(=O)O)NC(=O)C(C)(C)NC(=O)[C@@H](N)Cc1ccc(O)cc1)[C@@H](C)O)[C@@H](C)O)[C@@H](C)CC)[C@@H](C)CC)C(C)C)C(=O)N[C@@H](C)C(=O)NCC(=O)NCC(=O)N1CCC[C@H]1C(=O)N[C@@H](CO)C(=O)N[C@@H](CO)C(=O)NCC(=O)N[C@@H](C)C(=O)N1CCC[C@H]1C(=O)N1CCC[C@H]1C(=O)N1CCC[C@H]1C(=O)N[C@@H](CO)C(N)=O | – | human, moderate hepatic impairment | subcutaneous, 5 mg | – | tmax | 24 h |

For quick reference, copied from above:
| Compound | test | test system | conditions | how to read | endpoint | value |
| --- | --- | --- | --- | --- | --- | --- |
| O=C(c1ccc(F)c(F)c1Nc1ccc(I)cc1F)N1CC(O)([C@@H]2CCCCN2)C1 | refers to: retinal detachment | human patients | oral, 1 mg/kg, dose expansion, grade G4 | – | treatment-related adverse events | 0% |
| CC1(C)S[C@@H]2[C@H](NC(=O)[C@@H](C(=O)O)c3ccsc3)C(=O)N2[C@H]1C(=O)O | – | rat plasma | 8000 ng/mL, 24 h, room temperature, short-term stability | baseline: nominal concentration | relative error | -0.9% |
